Assay results of several laboratories.
Protocols differ between the studies behind these lines. “And” joins repeats or separate records; there may be more than shown. ± marks the error that the study gave.

CC(=O)c1c(C)c2cnc(Nc3ccc(C4CCN(CCS(C)(=O)=O)CC4)cn3)nc2n(C2CCCC2)c1=O  patients with TRAE grade ≥3 (HR+/HER2- advanced breast cancer patients; oral, 300 mg): 75%
C[C@H]1C[C@@H](N2C(=N)N[C@](C)(c3cccc(NC(=O)c4cccc(C#N)c4)c3Cl)CC2=O)CCO1  neutrophils count change (rat; 1000 mg/kg, every other day): 20%
COc1cc2c(Oc3ccc4[nH]c(C)cc4c3F)ccnc2cc1OCC1(N)CC1  grade 1 or 2 blurred vision (paediatric recurrent refractory sarcoma; 10 mg): 0%
Cc1ccccc1C(=O)NN=Cc1ccc(O)c(Br)c1  C0 (C3H/HeN mouse IN model, plasma; intravenous, 0.8 mg/kg): 145 ng/mL
C[C@]1(CO)Cc2ncn(-c3ccc(C#N)c(Cl)c3)c2C(=O)O1  subjects with drug-related dysgeusia (human; 40 mg single dose): 0%
CC(=O)[C@H]1[C@H](C#N)C[C@H]2[C@@H]3CC=C4C[C@@H](O)CC[C@]4(C)[C@H]3CC[C@@]21C  mRNA level (qPCR, item: Cyp3a11; wild-type mice, liver; 10 mg/kg, 3 days; reference: vehicle): increased
OCc1cn(Cc2cccc(Cl)c2)c2ccccc12  liver toxicity severity score (F344 rat, male, affected animals, liver; oral, 150 mg/kg/day, 2 days, score 0 to 4, mean; direction not given): 4
S=c1oc(-c2ccccc2)nn1CN1CCN(Cc2ccccc2)CC1  serum ALT (Wistar rat female; oral, 100 mg/kg, acute toxicity OECD 423): 40 ± 4.4 U/L
O=S(=O)(Nc1ccccc1)c1ccc(NC(=S)Nc2ccccc2)cc1  relative organ weight (mouse, male, kidney; oral, 5 mg/kg daily, 14 days; reference: body weight): 1.77%
O=C1Nc2cc3[nH]nc(-c4ccncc4)c3cc2CN1Cc1ccccc1  patients with TEAE (item: back pain; patients with advanced solid tumours; intravenous, dose not given, both schedules pooled): 24%
CCCC(CCC)NC(=O)c1ccc2c(c1)OCO2  PCE/NCE ratio (Swiss albino CD-1 mice, male, bone marrow; intraperitoneal, 175 mg/kg, 36 h): 0.9
O=C(O)CCCOc1ccc(F)cc1-c1cc(-c2ccccc2C(F)(F)F)n(-c2ccccc2)n1  relative organ weight (female Crl:CD(SD) rats, salivary glands; intravenous, 25 µg/kg, 1 d): 0.2 ± 0.01 g%
CCc1ccc(CC/C=C/c2ccc3c(c2)C(=O)CC3)cc1  TG (Sprague-Dawley rat, male; oral, 120 mg/kg/day, 14 days): 0.56 mM
CC(C)C[C@H](NC(=O)[C@H](CCCCN)NC(=O)OCC1c2ccccc2-c2ccccc21)C(=O)N[C@H](C(=O)N[C@@H](Cc1ccccc1)C(=O)N[C@@H](Cc1ccccc1)C(=O)N[C@@H](CCCCN)C(=O)NCC(=O)N[C@@H](Cc1ccccc1)C(=O)N[C@@H](C)C(=O)N[C@@H](Cc1c[nH]c2ccccc12)C(=O)N[C@@H](CC(N)=O)C(=O)N[C@H](C(=O)N[C@H]1CSSC[C@@H](C(=O)N[C@@H](Cc2c[nH]cn2)C(=O)N[C@@H](CCCNC(=N)N)C(=O)N[C@@H](CCCNC(=N)N)C(=O)N[C@@H](C)C(=O)N[C@@H](CC(N)=O)C(N)=O)NC(=O)[C@H](C(C)C)NC(=O)[C@H](CCCNC(=N)N)NC(=O)[C@H](C(C)C)NC(=O)CNC(=O)[C@H](CC(N)=O)NC(=O)[C@H](CCCNC(=N)N)NC(=O)[C@H](Cc2ccc(O)cc2)NC(=O)[C@H](C(C)C)NC1=O)C(C)C)C(C)C  remaining peptide (HPLC; mouse mammary gland homogenate; 2560 µM, 20.00 h, 37 °C, 50 mg/mL tissue): 53.9% and 56.8% and 52%
O=c1ccc2ncc(=O)n3c2n1C[C@H]3CN1CCC(NCc2cc3c(cn2)OCCC3)CC1  incidence of AST increased (healthy human volunteers; oral, 1500 mg, rifampicin cohort, together with: rifampicin 600 mg): 0%
Cn1cc(-c2nc(N[C@@H]3CCCC[C@@H]3N)c(F)c3c2C(=O)NC3)cn1  hemorrhagic adverse events (item: Melaena; patients with relapsed or refractory AML; oral, 60 mg once daily): 25%
C[C@@H](NC(=O)N1C(=O)[C@H](Cc2ccnc(N)c2)[C@H]1C(=O)O)C1CCCCC1  incidence of hypokalemia (healthy adult Chinese volunteers; continuous intravenous infusion, 0.6 mg/kg/h, 5-day infusion, CTCAE 5.0 grading): 0%
C=CC(=O)N1CC[C@H](n2nc(C#Cc3cc(OC)cc(OC)c3)c3c(N)ncnc32)C1  adverse drug reaction incidence (patients with advanced solid tumours; oral, dose not given, Stomatitis, any grade, QD, together with: sevelamer hydrochloride): 18.2%
CO[C@H]1C[C@@H]2CC[C@@H](C)[C@@](O)(O2)C(=O)C(=O)N2CCCC[C@H]2C(=O)O[C@H]([C@H](C)C[C@@H]2CC[C@@H](OC(=O)NCCOCCOCCOCCOCCOCCOCCOCCOCCC(=O)N3CCc4cc(Cn5nc(-c6ccc7oc(N)nc7c6)c6c(N)ncnc65)ccc4C3)[C@H](OC)C2)C[C@@H](O)[C@H](C)/C=C(\C)[C@@H](O)[C@@H](OC)C(=O)[C@H](C)C[C@H](C)/C=C/C=C/C=C/1C  TRAE incidence (phase 1 dose escalation, item: nausea; advanced solid tumour patients; intravenous, 6 mg weekly, grade ≥3): 0%
Cc1ccc(F)c2cc(C(=O)N[C@@H]3CCC[C@H](N4CC[C@H](N(C)S(C)(=O)=O)C4)C3)[nH]c12  plasma concentration (CD1 mouse, plasma; oral, 100 mg/kg, 24 h): 4.6 ng/mL
CC(C)[C@@H]1NC(=O)CNC(=O)[C@H](CC(N)=O)NC(=O)[C@H](CCCNC(=N)N)NC(=O)[C@H](Cc2ccc(O)cc2)NC(=O)[C@H](C(C)C)NC(=O)[C@@H](NC(=O)[C@@H](NC(=O)[C@H](CC(N)=O)NC(=O)[C@H](Cc2c[nH]c3ccccc23)NC(=O)[C@H](C)NC(=O)[C@H](Cc2ccccc2)NC(=O)CN)C(C)C)CSSC[C@@H](C(=O)N[C@@H](Cc2cnc[nH]2)C(=O)N[C@@H](CCCNC(=N)N)C(=O)N[C@@H](CCCNC(=N)N)C(=O)N[C@@H](C)C(=O)N[C@@H](CC(N)=O)C(N)=O)NC(=O)[C@H](C(C)C)NC(=O)[C@H](CCCNC(=N)N)NC1=O  plateletcrit (ICR mice, blood; intraductal mammary, 5 mg/kg, day 5): 0.02 ± 0.01%
CC(C)(C)c1cc(-n2nc3ccccc3n2)c(O)c(C(C)(C)C)c1  daily dermal exposure dose (human aged 1-2 years; concentration not given, sunscreen, 95th percentile): 7.48 ng/kg/day
CCCCCCCCCCCCCCCC(=O)N[C@@H](CCC(=O)NCCCC[C@H](NC(=O)[C@H](CC(=O)O)NC(=O)[C@H](CO)NC(=O)[C@@H](NC(=O)[C@H](Cc1ccccc1)NC(=O)[C@@H](NC(=O)CNC(=O)[C@H](CCC(N)=O)NC(=O)[C@H](CO)NC(=O)[C@@H](N)Cc1c[nH]cn1)[C@@H](C)O)[C@@H](C)O)C(=O)N[C@@H](CO)C(=O)N[C@@H](CCC(=O)O)C(=O)N[C@@H](Cc1ccc(O)cc1)C(=O)N[C@@H](CC(C)C)C(=O)N[C@@H](CC(=O)O)C(=O)N[C@@H](CO)C(=O)N[C@@H](CCC(=O)O)C(=O)N[C@@H](CCCNC(=N)N)C(=O)N[C@@H](C)C(=O)N[C@@H](CCCNC(=N)N)C(=O)N[C@@H](CC(=O)O)C(=O)N[C@@H](Cc1ccccc1)C(=O)N[C@H](C(=O)N[C@@H](C)C(=O)N[C@@H](Cc1c[nH]c2ccccc12)C(=O)N[C@@H](CC(C)C)C(=O)N[C@@H](CCC(=O)O)C(=O)N[C@@H](C)C(=O)NCC(=O)NCC(=O)O)C(C)C)C(=O)O  treatment-related adverse events (item: Flatulence; humans CrCl 45 to 60 mL/min; subcutaneous, 100 µg single dose): 0%
O=C(Nc1ccccc1)C1CCN(C(=O)Oc2cccnc2)CC1  adverse event Headache (healthy women; oral, 60 mg, 7 days): 7.1%
COc1cc(C(=O)NC2CCN(C)CC2)c(F)cc1Nc1ncc(C(F)(F)F)c(Oc2cccc3c2C(=O)N(C)C3)n1  fraction excreted in urine (0-24 h) (human patients, urine; oral, 25 mg single dose, geometric mean; reference: dose): 3.06%
C[C@@H]1NC(=O)[C@H](CCCCNC(=O)CO/N=C/C(=O)NCCCC[C@@H]2NC(=O)[C@@H](Cc3ccccc3)NC(=O)[C@H](CC(=O)O)NC(=O)CNC(=O)[C@H](CCCNC(=N)N)NC2=O)NC(=O)CNC(=O)[C@@H]2CCCN2C(=O)[C@H](CCCCNC(=O)CO/N=C/C(=O)NCCCC[C@@H]2NC(=O)[C@@H](Cc3ccccc3)NC(=O)[C@H](CC(=O)O)NC(=O)CNC(=O)[C@H](CCCNC(=N)N)NC2=O)NC(=O)[C@H](CCCCNC(=O)[C@H](CCCCN)NC(=O)[C@H](Cc2ccccc2)NC(=O)CNC(=O)CN2CCCNCCNCCCNCC2)NC(=O)[C@H](CCCCNC(=O)CO/N=C/C(=O)NCCCC[C@@H]2NC(=O)[C@@H](Cc3ccccc3)NC(=O)[C@H](CC(=O)O)NC(=O)CNC(=O)[C@H](CCCNC(=N)N)NC2=O)NC(=O)CNC(=O)[C@@H]2CCCN2C(=O)[C@H](CCCCNC(=O)CO/N=C/C(=O)NCCCC[C@@H]2NC(=O)[C@@H](Cc3ccccc3)NC(=O)[C@H](CC(=O)O)NC(=O)CNC(=O)[C@H](CCCNC(=N)N)NC2=O)NC1=O [copper-64 labelled]  tissue uptake (normal mice, spleen; intravenous, 0.74 MBq, 3 h post-injection): 7.22 ± 1.5 %ID/g
COc1ccc(CCC2CCCC(CCc3ccc(OC)cc3)N2C[C@@H](O)CO)cc1.Cl (stereo in doubt)  action potential amplitude change (rabbit Purkinje fibres; 0.1 µM, cycle length 0.5 s; reference: baseline): 0.6 ± 5.6 mV
COc1ccc2nc3cc(Cl)ccc3c(Nc3cc(CN4CCCC4)c(O)c(CN4CCCC4)c3)c2n1  urea level (mouse, blood; intraperitoneal, 57 mg/kg): 2.56 µmol/L
